Assay results collected from several papers.
Each line is one published result; not all experiments were run side by side. Numbers after ± are the reported error.
Metallo-beta-lactamase type 2: Metallo-beta-lactamase type 2 (Serratia marcescens, UniProt P52699)
KLRK1 with MICA: NKG2-D type II integral membrane protein, with MICA (KLRK1, Homo sapiens, UniProt P26718)
Sequence of UniProt P26718 (whole entry, looked up): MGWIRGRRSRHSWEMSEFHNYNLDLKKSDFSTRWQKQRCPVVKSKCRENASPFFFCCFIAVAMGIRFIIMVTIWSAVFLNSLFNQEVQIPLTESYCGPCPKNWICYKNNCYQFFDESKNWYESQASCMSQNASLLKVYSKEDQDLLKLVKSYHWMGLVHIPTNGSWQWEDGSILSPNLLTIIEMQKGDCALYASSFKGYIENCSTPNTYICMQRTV
Sequence of UniProt Q58513 (whole entry, looked up): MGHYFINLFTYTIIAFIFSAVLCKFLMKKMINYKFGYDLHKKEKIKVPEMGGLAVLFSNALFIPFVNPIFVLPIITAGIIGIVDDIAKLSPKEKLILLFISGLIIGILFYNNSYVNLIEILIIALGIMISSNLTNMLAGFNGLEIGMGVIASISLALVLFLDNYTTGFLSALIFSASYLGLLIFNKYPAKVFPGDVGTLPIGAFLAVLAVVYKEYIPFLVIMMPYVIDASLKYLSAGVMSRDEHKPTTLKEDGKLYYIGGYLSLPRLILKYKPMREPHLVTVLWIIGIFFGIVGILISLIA
Sequence of UniProt P05067 (whole entry, looked up): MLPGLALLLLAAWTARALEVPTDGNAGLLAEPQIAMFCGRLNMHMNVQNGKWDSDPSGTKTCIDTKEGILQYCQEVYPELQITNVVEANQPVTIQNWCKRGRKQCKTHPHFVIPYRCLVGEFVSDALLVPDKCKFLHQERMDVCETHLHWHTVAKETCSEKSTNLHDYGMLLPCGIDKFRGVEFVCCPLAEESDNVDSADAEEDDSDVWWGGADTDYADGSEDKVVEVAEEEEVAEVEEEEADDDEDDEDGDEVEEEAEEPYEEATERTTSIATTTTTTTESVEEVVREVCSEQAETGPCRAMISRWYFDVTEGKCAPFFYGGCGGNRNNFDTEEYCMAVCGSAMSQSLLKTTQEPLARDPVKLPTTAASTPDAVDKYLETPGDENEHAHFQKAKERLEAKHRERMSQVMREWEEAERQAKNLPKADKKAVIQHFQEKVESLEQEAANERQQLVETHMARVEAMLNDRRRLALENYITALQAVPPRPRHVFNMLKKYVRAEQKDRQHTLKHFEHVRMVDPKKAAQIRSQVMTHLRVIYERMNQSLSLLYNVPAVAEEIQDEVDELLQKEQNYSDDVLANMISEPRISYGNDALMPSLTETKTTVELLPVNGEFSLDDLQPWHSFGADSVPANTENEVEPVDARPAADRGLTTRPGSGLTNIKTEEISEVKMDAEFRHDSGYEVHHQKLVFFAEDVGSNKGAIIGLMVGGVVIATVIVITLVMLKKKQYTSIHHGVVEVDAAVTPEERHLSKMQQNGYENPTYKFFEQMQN
Sequence of UniProt P34897 (whole entry, looked up): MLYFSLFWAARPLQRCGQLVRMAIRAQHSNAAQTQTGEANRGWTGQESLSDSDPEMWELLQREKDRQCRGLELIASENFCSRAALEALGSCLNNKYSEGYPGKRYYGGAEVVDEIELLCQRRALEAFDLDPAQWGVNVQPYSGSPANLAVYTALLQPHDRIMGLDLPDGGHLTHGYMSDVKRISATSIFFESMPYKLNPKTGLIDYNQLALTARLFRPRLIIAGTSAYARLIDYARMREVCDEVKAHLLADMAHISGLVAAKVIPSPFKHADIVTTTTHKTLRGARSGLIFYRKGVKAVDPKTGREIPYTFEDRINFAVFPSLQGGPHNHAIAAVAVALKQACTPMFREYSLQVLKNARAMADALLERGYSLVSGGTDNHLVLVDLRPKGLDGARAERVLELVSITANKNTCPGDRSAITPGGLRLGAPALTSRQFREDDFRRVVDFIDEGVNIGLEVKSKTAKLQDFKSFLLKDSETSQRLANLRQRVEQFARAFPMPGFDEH
Sequence of UniProt P40261 (whole entry, looked up): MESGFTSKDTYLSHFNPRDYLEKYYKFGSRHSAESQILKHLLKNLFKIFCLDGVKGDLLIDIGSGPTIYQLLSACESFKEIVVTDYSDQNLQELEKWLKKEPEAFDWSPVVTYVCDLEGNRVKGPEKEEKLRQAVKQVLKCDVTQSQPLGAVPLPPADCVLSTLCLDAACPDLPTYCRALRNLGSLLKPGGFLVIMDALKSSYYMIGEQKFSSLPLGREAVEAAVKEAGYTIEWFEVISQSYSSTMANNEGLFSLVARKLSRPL
Sequence of UniProt Q86U44 (whole entry, looked up): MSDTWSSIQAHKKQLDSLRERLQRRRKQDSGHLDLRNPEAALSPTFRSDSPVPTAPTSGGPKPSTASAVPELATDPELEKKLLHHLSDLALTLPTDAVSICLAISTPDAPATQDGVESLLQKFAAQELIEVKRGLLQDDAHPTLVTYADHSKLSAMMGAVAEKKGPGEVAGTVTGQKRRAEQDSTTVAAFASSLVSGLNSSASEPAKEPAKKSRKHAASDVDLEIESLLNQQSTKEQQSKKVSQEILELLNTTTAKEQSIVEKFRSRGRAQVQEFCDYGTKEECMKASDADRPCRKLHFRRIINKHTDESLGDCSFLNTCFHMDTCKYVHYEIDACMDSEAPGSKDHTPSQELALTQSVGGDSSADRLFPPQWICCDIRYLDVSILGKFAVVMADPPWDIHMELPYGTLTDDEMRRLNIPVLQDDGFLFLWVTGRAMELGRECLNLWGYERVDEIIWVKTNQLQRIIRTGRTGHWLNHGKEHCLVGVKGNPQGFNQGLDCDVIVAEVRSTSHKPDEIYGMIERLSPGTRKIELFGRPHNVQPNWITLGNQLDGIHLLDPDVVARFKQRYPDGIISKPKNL
Sequence of UniProt Q920B6 (whole entry, unmodified, looked up): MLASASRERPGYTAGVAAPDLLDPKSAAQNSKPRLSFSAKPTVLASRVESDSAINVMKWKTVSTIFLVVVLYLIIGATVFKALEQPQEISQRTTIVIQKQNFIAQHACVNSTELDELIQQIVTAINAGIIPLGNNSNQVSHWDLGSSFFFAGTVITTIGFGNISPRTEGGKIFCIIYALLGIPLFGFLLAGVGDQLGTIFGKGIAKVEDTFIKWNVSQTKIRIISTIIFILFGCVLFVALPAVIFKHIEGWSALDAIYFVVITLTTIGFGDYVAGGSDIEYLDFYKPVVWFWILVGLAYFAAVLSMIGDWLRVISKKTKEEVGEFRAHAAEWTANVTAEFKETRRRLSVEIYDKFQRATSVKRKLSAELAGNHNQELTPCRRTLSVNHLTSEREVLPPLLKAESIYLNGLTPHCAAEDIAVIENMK
Sequence of UniProt P30969 (whole entry, looked up): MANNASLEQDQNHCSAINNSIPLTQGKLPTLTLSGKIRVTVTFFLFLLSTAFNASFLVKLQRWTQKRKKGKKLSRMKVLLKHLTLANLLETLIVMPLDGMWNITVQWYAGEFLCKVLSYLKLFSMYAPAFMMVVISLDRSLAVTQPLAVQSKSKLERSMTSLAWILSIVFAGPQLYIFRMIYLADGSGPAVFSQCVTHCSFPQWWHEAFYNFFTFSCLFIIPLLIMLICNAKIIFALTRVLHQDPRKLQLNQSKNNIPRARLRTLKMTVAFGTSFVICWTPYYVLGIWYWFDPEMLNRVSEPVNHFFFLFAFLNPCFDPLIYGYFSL
Sequence of UniProt P17301 (whole entry, looked up): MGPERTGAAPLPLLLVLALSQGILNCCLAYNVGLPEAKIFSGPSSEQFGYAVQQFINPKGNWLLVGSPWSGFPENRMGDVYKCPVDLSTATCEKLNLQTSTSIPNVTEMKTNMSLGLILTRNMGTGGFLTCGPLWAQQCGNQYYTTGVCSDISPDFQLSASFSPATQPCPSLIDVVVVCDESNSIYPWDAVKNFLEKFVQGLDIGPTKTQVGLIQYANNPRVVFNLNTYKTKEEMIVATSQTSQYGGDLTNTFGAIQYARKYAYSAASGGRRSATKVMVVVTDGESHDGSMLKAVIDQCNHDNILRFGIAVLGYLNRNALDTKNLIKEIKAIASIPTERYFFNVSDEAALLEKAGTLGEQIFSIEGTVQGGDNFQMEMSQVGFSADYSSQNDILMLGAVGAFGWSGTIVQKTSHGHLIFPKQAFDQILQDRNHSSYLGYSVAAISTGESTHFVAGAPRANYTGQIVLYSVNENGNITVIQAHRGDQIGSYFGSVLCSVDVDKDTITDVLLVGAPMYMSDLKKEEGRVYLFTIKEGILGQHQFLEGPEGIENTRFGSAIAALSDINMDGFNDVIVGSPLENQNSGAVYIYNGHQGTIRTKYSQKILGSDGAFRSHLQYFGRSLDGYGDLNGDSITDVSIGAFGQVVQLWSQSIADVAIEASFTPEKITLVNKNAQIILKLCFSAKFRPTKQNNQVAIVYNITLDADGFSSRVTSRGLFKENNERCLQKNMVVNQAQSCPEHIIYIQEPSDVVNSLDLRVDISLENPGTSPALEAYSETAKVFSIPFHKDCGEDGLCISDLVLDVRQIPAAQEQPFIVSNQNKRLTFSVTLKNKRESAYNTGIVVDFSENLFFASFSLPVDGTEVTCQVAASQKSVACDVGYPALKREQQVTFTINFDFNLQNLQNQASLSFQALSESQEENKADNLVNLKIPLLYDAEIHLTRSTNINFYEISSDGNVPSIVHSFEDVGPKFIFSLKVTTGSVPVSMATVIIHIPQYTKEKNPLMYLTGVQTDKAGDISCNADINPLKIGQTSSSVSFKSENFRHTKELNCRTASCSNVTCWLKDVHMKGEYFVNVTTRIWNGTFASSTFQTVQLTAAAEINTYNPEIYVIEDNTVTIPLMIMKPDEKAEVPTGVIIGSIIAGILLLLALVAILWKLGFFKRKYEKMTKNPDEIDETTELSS
Sequence of UniProt P68400 (whole entry, looked up): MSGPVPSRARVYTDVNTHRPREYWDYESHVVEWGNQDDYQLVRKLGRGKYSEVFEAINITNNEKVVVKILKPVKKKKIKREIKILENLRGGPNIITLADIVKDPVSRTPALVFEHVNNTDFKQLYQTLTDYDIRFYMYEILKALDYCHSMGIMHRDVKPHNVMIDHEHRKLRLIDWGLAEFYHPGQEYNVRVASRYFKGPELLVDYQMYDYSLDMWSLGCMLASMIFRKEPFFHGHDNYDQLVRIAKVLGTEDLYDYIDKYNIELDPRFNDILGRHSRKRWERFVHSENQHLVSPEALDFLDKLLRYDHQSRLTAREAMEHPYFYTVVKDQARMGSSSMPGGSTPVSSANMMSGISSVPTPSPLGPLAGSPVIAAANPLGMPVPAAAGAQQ

| SMILES | target or system | assay | test system | setting | quantity | result |
| --- | --- | --- | --- | --- | --- | --- |
| N[C@@H](CN[C@@H](CN[C@@H](CC(=O)O)C(=O)O)C(=O)O)C(=O)O | IMP-7 metallo-beta-lactamase | enzyme activity, inhibitor | – | Zn2+-depleted | IC50 | 53000 µM |
| O=C(O)c1nc[nH]c1C(=O)Nc1ccccc1 | Metallo-beta-lactamase type 2 | inhibitor | – | 10 min preincubation, added: FC5 fluorogenic substrate | IC50 | 267 µM |
| CC[C@H](C)[C@@H]1NC(=O)[C@H](Cc2ccc(O)cc2)NC(=O)CSC[C@@H](C(=O)NCC(N)=O)NC(=O)[C@H](CC(C)C)NC(=O)[C@H](CCCNC(=N)N)NC(=O)[C@H](Cc2ccccc2)NC(=O)[C@H](C(C)C)NC(=O)[C@H](Cc2ccc(O)cc2)NC(=O)[C@H](CC(C)C)NC(=O)[C@H](CCCNC(=N)N)NC(=O)[C@H](Cc2ccc(O)cc2)NC(=O)[C@H](CC(N)=O)NC(=O)[C@H](CC(N)=O)NC(=O)[C@H](Cc2c[nH]c3ccccc23)NC(=O)[C@H](C(C)C)NC(=O)[C@H](Cc2ccccc2)NC(=O)[C@H](CCCNC(=N)N)NC1=O | Nicotinamide N-methyltransferase (NNMT, Homo sapiens, UniProt P40261) | enzyme activity, inhibitor, mass spectrometry | – | – | IC50 | 0.674 µM |
| CCCCC[N+](CCCCC)(CCCCC)CCCCC | Potassium channel subfamily K member 2 (Kcnk2, Rattus norvegicus, UniProt Q920B6, L189C) | ion current, inhibitor, inside-out patch clamp | – | – | IC50 | 120 ± 18 µM |
| CN(C)C(=O)[C@H]1NC(=O)c2cnccc2-c2ccc(cc2)C(F)(F)CCCC(F)(F)c2cccc1c2 | KLRK1 with MICA | ligand binding, inhibitor, TR-FRET | HEK293 expressing NKG2D and DAP10 | added: MICA-Alexa647 | IC50 | 1.4 ± 0.3 µM |
| CC(=O)NC1C(OC2OC(CC(O)C3OC(n4ccc(=O)[nH]c4=O)C(O)C3O)C(O)C(O)C2NC(=O)COCc2ccc(N3CCC(Oc4ccc(OC(F)(F)F)cc4)CC3)cc2)OC(CO)C(O)C1O (stereo not drawn) | Putative glycosyltransferase MJ1113 (Methanocaldococcus jannaschii, UniProt Q58513) | enzyme activity, inhibitor | – | Methanococcus jannaschii enzyme | IC50 | 0.25 µM |
| CC(C)Cn1nnc(-c2ccccc2NC(=O)[C@H](C)CS)n1 | Metallo-beta-lactamase type 2 | inhibitor | – | 10 min preincubation, added: FC5 substrate | IC50 | 1.34 µM |
| CCn1nc(C=Cc2ccccc2)nc2c(=O)n(C)c(=O)nc1-2 | Trypanothione reductase (TPR, Trypanosoma brucei brucei, UniProt P39051) | inhibitor, DTNB-coupled colourimetric | – | added: substrate at Km | IC50 | 2.6 µM |
| CC1OC(OC2CC3OC(C)(C)OCC34C3C(O)CC5(C)C(C6=CC(=O)OC6)CCC5(O)C3CCC4(O)C2)C(O)C(O)C1O (stereo not drawn) | porcine Na+/K+-ATPase | enzyme activity, colorimetric phosphate release | – | – | IC50 | 12.4 µM |
| CC(=O)N[C@@H](CCCNC(=N)N)C(=O)N[C@H](C(=O)N1CCC[C@H]1C(=O)N[C@@H](COP(=O)(O)O)C(=O)N[C@@H](CC(C)C)C(=O)N1CCC[C@H]1C(=O)N[C@H](C(=O)N1CCC[C@H]1C(c1ccccc1)c1ccccc1)[C@@H](C)O)[C@@H](C)O | 14-3-3 protein zeta/delta (YWHAZ, Homo sapiens, UniProt P63104) | peptide binding, inhibitor, competitive fluorescence polarization | – | 10 µM protein, added: 100 nM FAM-labelled diphosphorylated Tau peptide | IC50 | 8.1 µM |
| C[C@@H](O)[C@H](NC(=O)[C@H](CCCCN)NC(=O)COCCN)C(=O)N[C@@H](CCCNC(=N)N)C(=O)NC(C)(C)C(=O)N[C@@H](CCCNC(=N)N)C(=O)NC(C)(C)C(=O)N[C@H](C(=O)N[C@@H](CO)C(=O)N[C@@H](Cc1c[nH]cn1)C(=O)N[C@@H](Cc1ccc(O)cc1)C(=O)NCC(=O)O)[C@@H](C)O | Integrin alpha-2, with integrin beta-1 (Homo sapiens, UniProt P17301) | – | K562 expressing integrin α2 | 60 min, 37 °C | IC50 | 0.00015 µM |
| CC(C)C[C@H](NC(=O)[C@@H](CCCCN)NC(=O)[C@H](Cc1c[nH]cn1)NC(=O)[C@H](CO)NC(=O)[C@H](Cc1c[nH]c2ccccc12)NC(=O)[C@H](Cc1c[nH]cn1)NC(=O)[C@@H]1CCC(=O)N1)C(=O)N[C@@H](CCCNC(=N)N)C(=O)N1CCC[C@H]1C(=O)NCC(N)=O | Gonadotropin-releasing hormone receptor (Rattus norvegicus, UniProt P30969) | ligand displacement in cells, radioligand | – | – | IC50 | 0.003 µM |
| Cn1nnnc1-c1cccc(NC(=O)CCS)c1 | Metallo-beta-lactamase type 2 | inhibitor | – | 10 min preincubation, added: FC5 substrate | IC50 | 1.54 µM |
| CN[C@@H](C)C(=O)N[C@H](C(=O)N1C[C@@H](NC(=O)CCCCOCc2cn(CCNC(=O)CN(Cc3cccs3)C(=O)[C@H](NS(=O)(=O)c3cc4ccc(O)nc4cc3Cl)c3ccccc3OC)nn2)C[C@H]1C(=O)N[C@@H]1CCCc2ccccc21)C1CCCCC1 | UDP-N-acetylglucosamine--peptide N-acetylglucosaminyltransferase 110 kDa subunit (OGT, Homo sapiens, UniProt O15294) | enzyme activity, inhibitor, fluorescence | – | – | IC50 | 1.92 µM |
| C[C@H](CCC(=O)NCC(=O)O)[C@H]1CC[C@H]2[C@@H]3CC[C@@H]4C[C@H](O)CC[C@]4(C)[C@H]3CC[C@]12C | Serine hydroxymethyltransferase, mitochondrial (SHMT2, Homo sapiens, UniProt P34897) | serine to glycine conversion, inhibitor | – | pH 7.5, 1% DMSO, added: L-serine 1 mM, THF 0.2 mM | IC50 | 0.15 µM |
| CN1C(=O)[C@H](Cc2ccccc2)N(C)C(=O)[C@@H]2[C@H]1CCN2Cc1cc(Cl)cc(Cl)c1 | KLRK1 with MICA | ligand binding, cellular TR-FRET | – | – | IC50 | 12.9 µM |
| CC(=O)Nc1ccc2ccn(-c3cc(NC4C5CC6CC(C5)CC4C6)n4ncc(C#N)c4n3)c2c1 (stereo not drawn) | Casein kinase II subunit alpha (CSNK2A1, Homo sapiens, UniProt P68400) | target engagement in cells, BRET | – | – | IC50 | 7.94 µM |
| CN[C@](C)(C[18F])C(=O)O | DU-145 tumour model | – | host not given, bone | 2 h, tumour-bearing | tracer uptake | 1.6 %ID/g |
| NC[C@@H]1O[C@H](O[C@H]2[C@@H](O)[C@H](O[C@@H]3[C@@H](O)[C@H](N)C[C@H](N)[C@H]3O[C@H]3O[C@H](CN)[C@@H](O)[C@H](O)[C@H]3N)O[C@@H]2Cn2cc(CCCCCCc3cn(C[C@H]4O[C@@H](O[C@@H]5[C@@H](O)[C@H](N)C[C@H](N)[C@H]5O[C@H]5O[C@H](CN)[C@@H](O)[C@H](O)[C@H]5N)[C@H](O)[C@@H]4O[C@H]4O[C@@H](CN)[C@@H](O)[C@H](O)[C@H]4N)nn3)nn2)[C@H](N)[C@@H](O)[C@@H]1O | HIV-1 TAR RNA | Tat peptide binding, FRET competition | – | pH 7.4, 25 °C | IC50 | 0.059 ± 0.011 µM |
| CC(C)(C)c1ccc(NC(=O)NCCC[C@H](CNCc2ccccc2)C[C@H]2O[C@@H](n3cnc4c(N)ncnc43)[C@H](O)[C@@H]2O)cc1 | N6-adenosine-methyltransferase catalytic subunit, with METTL14 (METTL3, Homo sapiens, UniProt Q86U44) | enzyme activity, inhibitor, radiometric | – | METTL3-METTL14 complex | IC50 | > 50 µM |
| CC1(C)C=Cc2c(cc(O)c3c(=O)cc(-c4ccccc4)oc23)O1 | Amyloid-beta precursor protein (APP, Homo sapiens, UniProt P05067) | – | – | – | IC50 | 70.3 ± 2.8 µM |
| Nc1ncnc2c1ncn2[C@@H]1O[C@H](CSCCNC(=O)NCCc2ccccc2)[C@@H](O)[C@H]1O | Protein arginine N-methyltransferase 9 (PRMT9, Homo sapiens, UniProt Q6P2P2) | enzyme activity, inhibitor, radiometric | – | – | IC50 | > 50 µM |
| CC[N+](CC)(CC)CC | Potassium channel protein kcv, L70A in one subunit (A250R, Paramecium bursaria Chlorella virus 1, UniProt Q84568, L70A) | – | – | – | IC50 | 340 ± 20 µM |
| CNC(=O)NC(=N)NCCC[C@@H]1NC(=O)[C@@H](C)NC(=O)C[C@@H](C(=O)O)NC(=O)C[C@@H](C(=O)O)NC(=O)[C@H](Cc2ccccc2)N(C)C1=O | Endochitinase B1 (Aspergillus fumigatus, UniProt Q873X9) | enzyme activity, inhibitor, fluorometric | – | 10 min, pH 5.5, 37 °C, added: 20 µM 4-MU-chitobiose | IC50 | 0.029 µM |

Repeated from above:
| SMILES | target or system | assay | test system | setting | quantity | result |
| --- | --- | --- | --- | --- | --- | --- |
| CC(C)Cn1nnc(-c2ccccc2NC(=O)[C@H](C)CS)n1 | Metallo-beta-lactamase type 2 | inhibitor | – | 10 min preincubation, added: FC5 substrate | IC50 | 1.34 µM |
| CCn1nc(C=Cc2ccccc2)nc2c(=O)n(C)c(=O)nc1-2 | Trypanothione reductase (TPR, Trypanosoma brucei brucei, UniProt P39051) | inhibitor, DTNB-coupled colourimetric | – | added: substrate at Km | IC50 | 2.6 µM |
